# Results collected from several papers.
# Each line is one published result; not all experiments were run side by side. Numbers after ± are the reported error.
# USP49 ZnF-UBD domain: Ubiquitin carboxyl-terminal hydrolase 49, ZnF-UBD domain (USP49, Homo sapiens, UniProt Q70CQ1)
# Chain of UniProt Q70CQ1 (whole entry, looked up): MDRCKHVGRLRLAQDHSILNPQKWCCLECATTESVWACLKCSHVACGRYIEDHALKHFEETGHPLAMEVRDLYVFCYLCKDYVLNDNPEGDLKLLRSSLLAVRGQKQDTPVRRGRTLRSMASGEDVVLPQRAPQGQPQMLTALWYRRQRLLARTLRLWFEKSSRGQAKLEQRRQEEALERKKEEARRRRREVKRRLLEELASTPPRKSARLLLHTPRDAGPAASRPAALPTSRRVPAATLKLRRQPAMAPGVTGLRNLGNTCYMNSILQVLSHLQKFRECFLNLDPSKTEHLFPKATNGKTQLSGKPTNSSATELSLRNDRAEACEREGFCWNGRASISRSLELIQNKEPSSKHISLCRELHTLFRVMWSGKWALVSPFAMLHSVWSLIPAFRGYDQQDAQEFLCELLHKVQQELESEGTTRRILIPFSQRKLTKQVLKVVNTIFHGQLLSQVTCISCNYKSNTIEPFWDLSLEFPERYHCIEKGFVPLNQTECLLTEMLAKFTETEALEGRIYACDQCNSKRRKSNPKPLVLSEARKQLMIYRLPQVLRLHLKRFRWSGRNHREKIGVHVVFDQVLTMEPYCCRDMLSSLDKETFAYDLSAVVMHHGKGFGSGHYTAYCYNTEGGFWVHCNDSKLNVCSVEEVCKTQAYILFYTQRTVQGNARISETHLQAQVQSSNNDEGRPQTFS
SMILES,tested on,test,system,setting,scale,endpoint,result
CC(C)(C(=O)N1CCOc2c(C#N)cncc2C1)C(F)F,,item: Cardiac disorders,human,"oral, 20 mg twice daily, 14 days, multiple ascending dose",,subjects with adverse event,0%
CCOC(=O)N1C[C@@H](c2cccc(Br)c2)N[C@@H](C(CC)CC)C1,,"shake-flask, 1-octanol/buffer",,pH 7.4,,logD,> 4.7
O=C(Nc1nc2cccc(-c3ccc(CN4CCS(=O)(=O)CC4)cc3)n2n1)C1CC1,,,rheumatoid arthritis patients,"oral, 100 mg twice daily, 4 weeks, TEAE regardless of relatedness",,patients with Asthenia,8.3%
Cc1ccc([C@@H]2O[C@H](CO)[C@@H](O)[C@H](O)[C@H]2O)cc1Cc1ccc(-c2ccc(F)cc2)s1,,,Japanese type 2 diabetes patients,"25 mg, day 15, 24 h urine collection",relative to: baseline,urinary chloride excretion change,47.6 mEq
C[C@H]1OC[C@H](c2ccc(-c3ccccn3)cc2)N[C@@H]1c1cccc(Cl)c1,,"shake-flask, 1-octanol/buffer",,pH 7.4,,logD,> 4.7
COc1cccc(OC)c1NS(=O)(=O)c1ccc(N/C=C2\C(=O)Nc3ccc4ncsc4c32)cc1,,,octanol/buffer,"67 µM, pH 7.4",,logD,3.82
CCn1c(=O)c(-c2cc(NC(=O)Nc3ccccc3)c(F)cc2Br)cc2cnc(NC)cc21,,,human plasma,"150 ng/mL, -20 °C, 3 cycles, low QC",,freeze-thaw stability accuracy,12.3%
CNCc1ccc(-c2[nH]c3cc(F)cc4c3c2CCNC4=O)cc1,,item: Cough,human patients,"oral, 600 mg twice daily, grade 3",,patients with adverse event,0%
C[C@@H]1CCO[C@H]2Cn3cc(C(=O)NCc4ccc(F)cc4F)c(=O)c(O)c3C(=O)N12,,"population PK, post-hoc","children, 20 to <25 kg, plasma","oral, 22.4 mg granules, steady state, geometric mean",,AUC(0-24),61600 ng·h/mL
CNC(=O)c1cc(Oc2ccc(NC(=O)Nc3cc(C(C)(C)C)nn3-c3ccc4ncccc4c3)c(F)c2)ccn1,,item: worst grade 3,human,"oral, dose not given, cycles 1 and 2, Low Cmax subgroup",,patients with any AE of special interest,12%
CCOC(=O)N1C[C@@H](c2ccc(C(C)(C)C)cc2)N[C@@H](c2ccc(F)c(C#N)c2)C1,,"shake-flask, 1-octanol/buffer",,pH 7.4,,logD,> 4.7
NC1(C(=O)N[C@@H](CCO)c2ccc(Cl)cc2)CCN(c2nc[nH]c3nccc2-3)CC1,,,human mCRPC patients,"oral, twice daily, 4/7 days, grade 3/4, treatment-related, together with: enzalutamide 160 mg daily",,lower abdominal pain incidence,0%
Clc1ccc([C@@H]2COC[C@@H](c3cc(Cl)cc(Cl)c3)N2)cc1,,"shake-flask, 1-octanol/buffer",,pH 7.4,,logD,> 4.7
C[Si](C)(C)O[Si](C)(C)O[Si](C)(C)C,,,air/water,concentration not given,,enthalpy of phase change,9.44 kcal/mol
C[C@@H](Oc1ccc(S(C)(=O)=O)cc1C(=O)N1C[C@@H]2C[C@]2(c2cc(C(F)(F)F)on2)C1)C(F)(F)F,,LC-MS/MS,"young human subjects, plasma","oral, 75 mg twice daily, single dose",,half-life,44 h
COc1ccc2c(=O)n(C)c(-c3ccccc3)nc2c1,,,"Sprague-Dawley rat, male, small intestine","oral, 30 mg/kg, 0.25 h",,concentration,19600 ng/mL
CNC(=O)c1ccc(-c2cnc3ncc(Cc4ccc5ncccc5c4)n3n2)cc1F,,,Japanese patients,"oral, 400 mg twice daily, grade 3/4",,Photosensitivity patients,0%
O=C(COc1ccc(Cl)cc1)NC12CC(c3nnc([C@H]4C[C@@H](OC(F)(F)F)C4)o3)(C1)C2,,,"humans, MAD","oral, dose not given, 14 days, all compound doses",,procedural pain,35.3%
Cc1ccc(C(=O)O)cc1S(=O)(=O)Nc1cccc(C(=O)CCC(=O)O)c1,USP49 ZnF-UBD domain,,,,,Kd,187 µM
Cc1ccc(Sc2ccccc2N2CCNCC2)c(C)c1,,item: Thirst,healthy adult women,"oral, 5 mg daily, 12 days",,participants with TEAE,0%
CCOc1c([C@H](C)n2nc(C)c3c(N)ncnc32)cc(Cl)c(F)c1[C@@H]1CNC(=O)C1,,item: QRS ≤100 ms,previously treated B-cell malignancy,"oral, 20 mg once daily, baseline below thresholds",,ECG observations,92.7%
O=C(O)CCC1=Nc2cccc3cccc(c23)N1,USP49 ZnF-UBD domain,,,,,Kd,> 1000 µM
COc1cc(N2CCC3(CCN(C)CC3)CC2)ccc1Nc1ncc(Cl)c(Nc2ccccc2P(C)(C)=O)n1,,population PK model,human,"oral, final model",,V1/F,348 L
COc1ccc2c(c1)CN(C(=O)CCN1CCC(Cc3ccccc3)CC1)CC[S@@+]2[O-],,telemetry,conscious dog,"intravenous, 8 mg/kg, 24 h",,heart rate,85 ± 14 beats/min
CN(C(=O)n1cnc(-c2cccnc2)c1)C1CCCCC1,,,"Wistar rat, midbrain","oral, 10 mg/kg/day of BIA 10-2474, 4 h, repeated 5 days",,concentration,34.2 ± 8.4 ng/g
CC[C@H](C)CCCCC(=O)N[C@@H](CCN)C(=O)N[C@H](C(=O)N[C@@H](CCN)C(=O)N[C@H]1CCNC(=O)[C@H]([C@@H](C)O)NC(=O)[C@H](CCN)NC(=O)[C@H](CCN)NC(=O)[C@H](CC(C)C)NC(=O)[C@@H](Cc2ccccc2)NC(=O)[C@H](CCN)NC1=O)[C@@H](C)O,,,"mild renal insufficiency patients, urine","IV, 0.75 mg/kg, 0-24 h, arithmetic mean",,cumulative urinary excretion,0.643 mg
CCN1CCN(Cc2ccc(Nc3ncc(F)c(-c4cc(F)c5nc(CO)n(C(C)C)c5c4)n3)nc2)CC1,,,"human, liver",population PK model estimate,,intrinsic clearance,452 L/h
Cc1cc(-c2nccc3c2ccn3CC(=O)Nc2ccc(-c3cnccn3)cn2)ccn1,,,human,"MAD part, 20 mg once daily",,subjects with skin abrasion TEAEs,11.1%
FC(F)(F)c1ccc(CNc2ccc(Cc3c[nH]c4ncc(Cl)cc34)cn2)cn1,,item: Insomnia,"patients with advanced solid tumours, non-TGCT cohort","oral, 1000 mg/day, any grade",,treatment-related adverse events,14%
Cc1cc(NC2CCN(C(=O)OC3CCN(C(=O)/C=C/CN(C)C)C3)CC2)n2ncc(C(C)C)c2n1 (stereo not shown),,,patients with advanced solid tumours,"dose not given, QD arm, any grade",,patients with Dyspepsia,7%
COc1cc(C(=O)N2CCC3(CC2)CC(=O)c2c(cnn2C(C)C)C3)cc(-c2ccc(C(=O)O)cc2)n1,,direct measurement,"human, fasting serum","40 mg once daily, day 13, adjusted geometric mean",relative to: placebo,LDL cholesterol change from baseline,5.9%
Cc1cc(C)c(CNC(=O)c2cc(Cl)c3c(c2C)O[C@@](C)([C@H]2CC[C@H](N(C)C)CC2)O3)c(=O)[nH]1,,item: Hypercalcemia,human patients,"oral, 200 mg once daily, 1 day onset day 14",,patients with grade ≥3 TEAE,4.2%
O=c1cc(-c2ccc(O)cc2)oc2c([C@@H]3OC[C@H](O)[C@H](O)[C@H]3O)c(O)c([C@@H]3O[C@H](CO)[C@@H](O)[C@H](O)[C@H]3O)c(O)c12,,UHPLC-MS/MS,"C57BL/6J mouse, heart","oral, dose not given",,tissue concentration,0.28 ng/g
CC[C@H](C)C(=O)O[C@H]1C[C@@H](C)C=C2C=C[C@H](C)[C@H](CC[C@@H]3C[C@@H](O)CC(=O)O3)[C@H]21,,,EpiIntestinal microtissues,"10 µM, pH 6.5",,CLint,3.44 µL/min/mg
O=C(Nc1ccc(OC(F)(F)Cl)cc1)c1cnc(N2CC[C@@H](O)C2)c(-c2ccn[nH]2)c1,,,human patients,"oral, dose not given",relative to: records,triglyceride increase incidence,33%
CCCC(=O)Nc1cc(C2CC2)[nH]n1,,,octanol/buffer,"67 µM, pH 7.4",,logD,1.75
COc1cc(Nc2ncc3c(n2)-c2ccc(Cl)cc2C(c2c(F)cccc2OC)=NC3)ccc1C(=O)O,,"item: decreased neutrophil count, all grades","cancer patients, phase 1/2","oral, dose not given, together with: pembrolizumab",,patients with adverse event,42%
Cn1cnc2c(F)c(Nc3ccc(Br)cc3Cl)c(C(=O)NOCCO)cc21,,population PK model,"human, plasma","oral, sequential zero-first-order absorption, fasted",,absorption lag time,0.28 h
CC#CC(=O)N1CCC[C@H]1c1nc(-c2ccc(C(=O)Nc3ccccn3)cc2)c2c(N)nccn12,,,PBS,"100 µM, 23 h, pH 7.45, 37 °C, together with: GSH 5 mM",,GSH adduct formation,95%
CN1CCN(C(=O)[C@H](CCCN[C@@H]2C[C@H]2c2ccc(F)cc2)NC(=O)c2ccc(-n3ccnn3)cc2)CC1,,,C57BL/6 mice,"oral, 40 to 60 mg/kg/day, 7 days",,lymphocyte count,no effect
NC/C(=C\F)COc1cccc(Cn2c(=S)[nH]c(=O)c3[nH]cnc32)c1,,,"C57BL/6J mice, kidney","oral, 15 mg/kg single, 2 h",,tissue concentration,624 ng/mL
CCC[C@@H](C)[C@H]1COC(C)(C)[C@@H](c2ccc(-c3ccccc3)cc2)N1,,"shake-flask, 1-octanol/buffer",,pH 7.4,,logD,> 4.7
C=CC(=O)Nc1cc(Nc2nccc(-c3cn(C)c4ccccc34)n2)c(OC)cc1N(C)CCN(C)C,,storage stability,human plasma,"10 d, -80 °C, MQC level",,recovery,102%
CC(C(=O)NCC(=O)NCC(CNC(=O)CNC(=O)C(C)N1CCN(CC(=O)[O-])CCN(CC(=O)[O-])CCN(CC(=O)[O-])CC1)(CNC(=O)CNC(=O)C(C)N1CCN(CC(=O)[O-])CCN(CC(=O)[O-])CCN(CC(=O)[O-])CC1)CNC(=O)CNC(=O)C(C)N1CCN(CC(=O)[O-])CCN(CC(=O)[O-])CCN(CC(=O)[O-])CC1)N1CCN(CC(=O)[O-])CCN(CC(=O)[O-])CCN(CC(=O)[O-])CC1.[Gd+3].[Gd+3].[Gd+3].[Gd+3] (stereo not shown),,ICP-MS,"female cynomolgus monkey, plasma","intravenous bolus, 0.1 mmol/kg, lanthanide mixture, geometric mean",relative to: AUC,terminal phase AUC share,0.459%
C/C(O)=C(\C#N)C(=O)Nc1ccc(C(F)(F)F)cc1,,,"mouse (CD-1, female), whole blood","50 µM, 120 min, 37 °C",,blood/plasma ratio,0.63 ± 0.2
C[C@@H](N)C1CCN(S(=O)(=O)c2cccc3cnccc23)CC1,,,healthy volunteers,"150 mg, fasted",,participants with TEAEs,33.3%

# For quick reference, copied from above:
SMILES,tested on,test,system,setting,scale,endpoint,result
CN(C(=O)n1cnc(-c2cccnc2)c1)C1CCCCC1,,,"Wistar rat, midbrain","oral, 10 mg/kg/day of BIA 10-2474, 4 h, repeated 5 days",,concentration,34.2 ± 8.4 ng/g
CC[C@H](C)CCCCC(=O)N[C@@H](CCN)C(=O)N[C@H](C(=O)N[C@@H](CCN)C(=O)N[C@H]1CCNC(=O)[C@H]([C@@H](C)O)NC(=O)[C@H](CCN)NC(=O)[C@H](CCN)NC(=O)[C@H](CC(C)C)NC(=O)[C@@H](Cc2ccccc2)NC(=O)[C@H](CCN)NC1=O)[C@@H](C)O,,,"mild renal insufficiency patients, urine","IV, 0.75 mg/kg, 0-24 h, arithmetic mean",,cumulative urinary excretion,0.643 mg
CCN1CCN(Cc2ccc(Nc3ncc(F)c(-c4cc(F)c5nc(CO)n(C(C)C)c5c4)n3)nc2)CC1,,,"human, liver",population PK model estimate,,intrinsic clearance,452 L/h
Cc1cc(-c2nccc3c2ccn3CC(=O)Nc2ccc(-c3cnccn3)cn2)ccn1,,,human,"MAD part, 20 mg once daily",,subjects with skin abrasion TEAEs,11.1%
FC(F)(F)c1ccc(CNc2ccc(Cc3c[nH]c4ncc(Cl)cc34)cn2)cn1,,item: Insomnia,"patients with advanced solid tumours, non-TGCT cohort","oral, 1000 mg/day, any grade",,treatment-related adverse events,14%
Cc1cc(NC2CCN(C(=O)OC3CCN(C(=O)/C=C/CN(C)C)C3)CC2)n2ncc(C(C)C)c2n1 (stereo not shown),,,patients with advanced solid tumours,"dose not given, QD arm, any grade",,patients with Dyspepsia,7%
COc1cc(C(=O)N2CCC3(CC2)CC(=O)c2c(cnn2C(C)C)C3)cc(-c2ccc(C(=O)O)cc2)n1,,direct measurement,"human, fasting serum","40 mg once daily, day 13, adjusted geometric mean",relative to: placebo,LDL cholesterol change from baseline,5.9%
